Results pooled from the literature.
Every numbered part comes from another study and shows a few of its results, in no order.

Study 1
Target: RING finger protein unkempt homolog, zinc fingers 1-6, SBP tag (UNK, Homo sapiens, UniProt Q9C0B0, residues 30-357)
UniProt Q9C0B0, sequence (30-357, looked up): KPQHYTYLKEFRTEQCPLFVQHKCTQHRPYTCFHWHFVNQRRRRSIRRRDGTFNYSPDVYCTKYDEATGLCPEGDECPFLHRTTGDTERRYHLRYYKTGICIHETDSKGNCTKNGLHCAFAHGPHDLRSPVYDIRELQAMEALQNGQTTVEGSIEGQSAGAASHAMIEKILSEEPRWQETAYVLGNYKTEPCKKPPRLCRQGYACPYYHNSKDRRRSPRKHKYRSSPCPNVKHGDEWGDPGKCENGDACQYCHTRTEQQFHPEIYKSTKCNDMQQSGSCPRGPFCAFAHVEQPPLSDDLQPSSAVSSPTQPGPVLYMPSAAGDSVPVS
Technique: RNA Bind-n-Seq
Form: RNA
Medium: in vitro
Concentration: 100 nM
Setting: RNA with constant flanks, vertebrate orthologous sites, ends assumed
Baseline: input RNA pool
Reading: higher = stronger binding
Strand	bound/input enrichment [ratio]
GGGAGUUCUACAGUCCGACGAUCGGAUAUUUAAAAUCUUGAAUUGUCCUGGGAUGCUCAAGUUCAUUCUGUAGGAUGAGACCAUAGGAUGAUGUUGCUGUUUUGUUUUGUUCUGUCUUUUAAGUCUGUGUACUGUGUCCAGUUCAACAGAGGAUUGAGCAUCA	0.604
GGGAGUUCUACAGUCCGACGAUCUAAUGUGUUUUUAUUUAUUGAAAAUAGUUUUGUGCUAAGGAUUGUGUUAGAUUUACAAAUUAGUGGAUUGAUUGCUCUUUGUUGUGUUGCUUUCAUUGUUGAAAAUAAAUAGAACUUUGACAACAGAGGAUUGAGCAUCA	1.02
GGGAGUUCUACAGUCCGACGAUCUGUGCUUAUGCUCUUCUGAGGAAGAGAUGAAUUGGGGAGAGCUGUCCCCUUUUUAUAGAUUAGUUUGUUUCUAAAUUAUGACCAAAAAAUAUUUUGCUAUUUCUUUCUUUAUAUAUGGACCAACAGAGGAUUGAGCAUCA	0.731
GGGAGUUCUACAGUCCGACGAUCUUCGCUGAGCGGCAGCCUGCCAUCAGUGGCCGACUCCCACUCCAGCCACUUCUCUGAGUUCAGCUGCUCCGACCUGGAGAGCAUGAAGACCUCAUGUAGCCACGGCUCCAGCGGUGGUGACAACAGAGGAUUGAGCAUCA	0.242
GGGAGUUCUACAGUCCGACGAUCUAUUGUAUGUAGAGAAAAAGUUCGAUUGGCCACAUUGUGAAAUUCCCUAGCAAAUUUAUUUAGAAUCUUAAUUUUUCUAUUUCAGGGUCACCGUAGCAGGGUGCAUUUCAUGCCUUAUUUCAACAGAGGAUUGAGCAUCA	6.68
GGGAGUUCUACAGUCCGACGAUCGUUCUUAUUACACUCUUCUAGGGAAGAGAUGAACUGGGGAAAACUCUCCUUUUUAUAGAUUAAUUUCUCUCUAAAUUAUGACCAAAAAUAUUUUGCUAUUUCUUUCUUUAUAUAUGCACACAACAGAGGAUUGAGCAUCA	1.44
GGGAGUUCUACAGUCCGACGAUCCUCUCUGAGCGAUAGCAUCCCGUCUGUAGCAGAUUCCCACUCAAGUCAUUUUUCAGAGUUUAGUUGCUCUGAUAUGGAAAGUAUGAAAACGUCCUGUAGCCAUGGUUCCAAUGAUUACCACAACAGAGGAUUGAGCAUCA	0.344
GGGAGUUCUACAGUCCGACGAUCAAGCCCUGUGAAGGUCUACUGACCACUCACUAUCGUCUGGUAUCUGUAAACACUUCUGUUUAGUCCUUUCAUUGUAUAAUUGAUGUUCUUUACAACUGUCGAUGUAAAACAGGGCUUAUGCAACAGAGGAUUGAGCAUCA	0.869

Study 2
Target: Fragile X messenger ribonucleoprotein 1, C-terminal low-complexity region (Fmr1, Mus musculus, UniProt P35922)
Technique: RNA Bind-n-Seq
Form: RNA
Medium: in vitro
Concentration: 200 nM
Setting: whole 134-nt RNA, ends assumed
Together with: 150 mM LiCl
Baseline: input library
Reading: higher = stronger binding
Each molecule: 7-deaza-guanosine replaces G
Strand	log2 enrichment
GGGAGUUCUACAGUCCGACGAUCCUCAAGUCCUGUGCUACACAUCGUAUGUACCGAAUCGGUGGUGGUUUUUUUGGAAAGUAUUAUGUUACGCCGUUCGGAUCUGCACUUCCAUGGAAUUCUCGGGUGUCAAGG	0.658
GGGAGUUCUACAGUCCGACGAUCCAAGUCCUGUGCUACACAUCGUAUGUACCGAAUCGGUUUUUGGAGGAAAAAAAGGAAAGUAUUAUGUUACGCCGUUCGGAUCUGCACUUCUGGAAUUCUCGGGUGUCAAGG	-1.19
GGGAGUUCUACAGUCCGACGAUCUUAAGGGAAUCUAUUGCUGAACACAAACCUCAUAUUGACAAACUACUAAAGAUAGGCCCACAACUAAAGGAAUUAAACCCUGAGGAAGGGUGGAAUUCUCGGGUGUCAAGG	0.277
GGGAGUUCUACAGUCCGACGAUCCCUCAAGUCCUGUGCUACACAUCGUAUGUACCGAAUCGGAAGGAAGGGAAGGAAAGUAUUAUGUUACGCCGUUCGGAUCUGCACUUCCAGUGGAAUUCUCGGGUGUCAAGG	-0.713
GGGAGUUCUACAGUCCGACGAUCAGUCCUGUGCUACACAUCGUAUGUACCGAAUCGGGUUUUUUUGGGUUUUUGGGUGGGAAAGUAUUAUGUUACGCCGUUCGGAUCUGCACUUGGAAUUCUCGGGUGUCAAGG	-1.47
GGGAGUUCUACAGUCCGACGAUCUCCUCAAGUCCUGUGCUACACAUCGUAUGUACCGAAUCGGCGGGCGGCGGGGAAAGUAUUAUGUUACGCCGUUCGGAUCUGCACUUCCAGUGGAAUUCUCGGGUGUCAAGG	1.12
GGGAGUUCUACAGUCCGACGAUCCUCAAGUCCUGUGCUACACAUCGUAUGUACCGAAUCGGUUUGGAAAGGUUUGGAAAGUAUUAUGUUACGCCGUUCGGAUCUGCACUUCCAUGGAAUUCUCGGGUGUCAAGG	-0.777
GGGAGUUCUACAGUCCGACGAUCAAGUCCUGUGCUACACAUCGUAUGUACCGAAUCGGGGUGGGGUGGGGAAAAAGGGGAAAGUAUUAUGUUACGCCGUUCGGAUCUGCACUUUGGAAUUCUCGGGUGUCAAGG	-1.14

Study 3
Target: Histone acetyltransferase KAT6A, winged helix 2, GST fusion (KAT6A, Homo sapiens, UniProt Q92794, residues 85-181)
Technique: protein binding microarray
Form: double-stranded DNA, one strand shown
Medium: in vitro
Concentration: not given
Setting: 8-mer, flanks averaged, mean of 2 arrays, mostly near background
Baseline: not given
Reading: higher = stronger binding
Construct (chain): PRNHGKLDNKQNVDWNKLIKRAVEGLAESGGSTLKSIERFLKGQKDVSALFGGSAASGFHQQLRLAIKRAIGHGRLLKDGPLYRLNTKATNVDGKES
Strand	E-score
CAAACGAA	0.0813
AGAATTAG	0.0716
ATACGCTC	-0.0635
CCTTATCC	-0.042
CGCGTCAA	-0.109
ATCGGCCA	0.0189
AACTCACA	0.0867
AGGTAGGG	-0.0886
AGCTGGTG	0.0828
CGGATTCC	-0.0146
CCGATGAG	0.0522
CAATATGG	-0.00523
GGTGACTA	0.0572
GACGTTGC	0.124
CGGTCGGC	0.00441
ACTCACGG	0.0428
ATTGCTAA	0.0947
CACAGAAG	0.0409
AAAACCTT	0.0554
AATCCTGA	0.0773
CGCTCTAG	-0.0433
GTACTCAA	-0.232

Study 4
Target: PABPC1L2, full length, GST fusion (mouse, UniProt A0ABA7IW68)
Technique: RNAcompete
Form: RNA
Medium: in vitro
Concentration: 20 nM
Setting: 7-mer, probes averaged, single round
Baseline: mean of 7-mers
Reading: higher = stronger binding
Construct (chain): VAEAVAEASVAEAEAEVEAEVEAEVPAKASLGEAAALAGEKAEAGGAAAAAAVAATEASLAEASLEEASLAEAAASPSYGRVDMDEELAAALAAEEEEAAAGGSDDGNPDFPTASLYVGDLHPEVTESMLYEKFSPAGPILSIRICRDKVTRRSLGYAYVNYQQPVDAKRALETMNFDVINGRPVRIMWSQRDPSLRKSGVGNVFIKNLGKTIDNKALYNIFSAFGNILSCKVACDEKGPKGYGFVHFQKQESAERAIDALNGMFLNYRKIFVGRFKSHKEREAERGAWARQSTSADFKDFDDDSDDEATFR
Strand	7-mer Z-score
CACGACA	-0.0192
UGAAAAA	10.8
AUGUUCA	-0.327
CCUGGAC	-0.215
AUAAGGC	0.129
ACGAUAA	0.546
UUGGACA	0.0297
AAGCCAA	0.229
GGAACCG	-0.0283
CAUUCGA	-0.215
UACUAGA	-0.161
CCGUGGA	0.075
AAGAGAU	0.602
UCCAACC	-0.219
UCCCCCU	-0.485
GGGAGUG	0.245
ACGGUCG	-0.304
GAGCCUG	-0.164
UACAGAU	0.0406

A few entries again (study 4):
Strand	7-mer Z-score
CCUGGAC	-0.215
ACGGUCG	-0.304
AUGUUCA	-0.327
CAUUCGA	-0.215
